Published values from different studies.
Each line is one published result; not all experiments were run side by side. Numbers after ± are the reported error.

COc1ccc(Nc2c(C#N)cnc3ccc(Cl)cc23)cc1  IC50 (Trypanosoma cruzi; growth; cardiomyocytes, Y, amastigote; 72 h): 12000 nM
CN(C)c1cc(CNCC2CCCCC2)c(O)c2c1C[C@H]1C[C@H]3[C@H](N(C)C)C(O)=C(C(N)=O)C(=O)[C@@]3(O)C(O)=C1C2=O  MIC (Streptococcus pneumoniae; microbial growth, broth dilution): < 0.06 µg/mL
CC1(C)NCCC[C@]2(C)[C@H]3C=CC4=C5C[C@@](C)(CO)CC[C@]5(C)CC[C@@]4(C)[C@]3(C)CC[C@@H]12  EC90 (Human cytomegalovirus; cytopathic effect; HFF, AD169): > 30000 nM
CCCCCCn1ccc([C@H](C)[C@](O)(Cn2cnnn2)c2ccc(F)cc2F)n1  MIC (Candida tropicalis; growth, broth microdilution; 2718; 24 h, 30 °C, ≥50% inhibition): 0.0625 µg/mL
Oc1cc(O)cc(Oc2c(O)cc(O)c3c2Oc2c(O)cc4oc5c(Oc6cc(O)cc(O)c6)c(O)cc(O)c5c4c2O3)c1  viral protein synthesis (Porcine epidemic diarrhea virus; western blot, measured: spike protein; Vero; 30 µM, 18 and 24 h): inhibited
CC(C)(C)NCC(SS(=O)(=O)O)c1ccccc1 (stereo not drawn)  female worm burden reduction (Schistosoma mansoni; mice; oral, 200 mg/kg once daily for 4 days, from 7 days post infection): 95%
CC[C@@H](C)[C@@H](NC(=O)[C@@H](C)NC(=O)[C@@H](CCCCN)NC(=O)[C@@H](CC(C)C)NC(=O)[C@@H](CC(C)C)NC(=O)[C@H](NC(=O)[C@@H](CCCCN)NC(=O)[C@@H](CC(C)C)NC(=O)[C@@H](C)NC(=O)[C@@H](CCCCN)NC(=O)[C@@H](CCCCN)NC(=O)[C@@H](CCCCN)NC(=O)[C@@H](C)NC(=O)[C@@H](CCCCN)NC(=O)[C@@H](CO)NC(=O)[C@@H](Cc1ccccc1)NC(=O)[C@H](NC(=O)[C@@H](CCCCN)NC(=O)[C@@H](CC(C)C)NC(=O)[C@@H](Cc1ccccc1)NC(=O)[C@@H](CO)NC(=O)[C@@H](CCCCN)NC(=O)[C@@H](Cc1c[nH]c2ccccc12)NC(=O)[C@@H](CCCCN)NC(C)=O)[C@H](C)O)[C@H](C)O)C(=O)N[C@H](CO)C(=O)N[C@H](CCCCN)C(N)=O  MIC (Acinetobacter baumannii; 759, Mueller-Hinton broth; 24 h, 37 °C): 0.7 µM
CC(C)c1ccc(Cn2ccc([C@H](C)[C@](O)(Cn3cnnn3)c3ccc(F)cc3F)n2)cc1  MIC (Candida tropicalis; CLSI broth microdilution; 2718; 24 h): < 0.008 µg/mL
CC[C@H](C)[C@H](NC(=O)[C@H](CCCCN)NC(=O)[C@H](CC(N)=O)NC(=O)[C@H](Cc1c[nH]c2ccccc12)NC(=O)[C@H](Cc1ccccc1)NC(=O)[C@H](CCCCN)NC(=O)[C@H](CCCCNC(=N)N)NC(=O)[C@H](CC(C)C)NC(=O)[C@H](Cc1c[nH]c2ccccc12)NC(=O)[C@H](CCCCN)NC(=O)[C@H](CCCCNC(=N)N)NC(=O)[C@H](CC(C)C)NC(=O)CNC(C)=O)C(=O)N[C@@H](CCCCN)C(=O)N[C@@H](CCCCNC(=N)N)C(N)=O  geometric mean MIC (all bacteria tested): 3.51 µM
O=C1CC(c2ccc(O)cc2)Oc2cc(O)cc([O][Ga+][O]c3cc(O)cc4c3C(=O)CC(c3ccc(O)cc3)O4)c21 (stereo not drawn)  remaining haemolytic activity (Pseudomonas aeruginosa; rabbit erythrocytes; 0.08 µM): 5%
CN(C)Cc1cc(N(C)C)c2c(c1O)C(=O)C1=C(O)[C@]3(O)C(=O)C(C(N)=O)=C(O)[C@@H](N(C)C)[C@@H]3C[C@@H]1C2  MIC (Streptococcus pneumoniae; ATCC 700905, Tet M ribosome protection): 0.5 µg/mL
Cc1ccc(-c2cn([C@H]3C[C@H](O)[C@@H](CO)O3)c3ncnc(N)c23)cc1Cl  EC50 (Trichomonas vaginalis; resorufin; G3, metronidazole-sensitive; 24 h + 2 h, 2% O2): 1110 ± 50 nM
CCCCCc1ccc2c(c1O)C(c1ccc(OC)c(OC)c1OC)OC2=O (stereo not drawn)  ATP level decrease (Naegleria fowleri; trophozoite ATP, CellTiter-Glo; ATCC 30808; concentration not given, 24 h, 37 °C; relative to: untreated): 67.1%
COCCNCc1cc(N(C)C)c2c(c1O)C(=O)C1=C(O)[C@]3(O)C(=O)C(C(N)=O)=C(O)[C@@H](N(C)C)[C@@H]3C[C@@H]1C2  MIC (Streptococcus pneumoniae; microbial growth, broth dilution): 0.5 µg/mL
Cc1ccc(-c2nc3ccc(C)cn3c2CN2CCN(c3cccc(C(F)(F)F)c3)CC2)cc1  EC50 (Trypanosoma cruzi; 3T3 host cells, Tulahuen beta-galactosidase; 6 days): 1500 nM
